Results of several laboratories.
Each numbered part is a random draw from the data of one study; scales do not carry over between parts.
UniProt Q5S007, sequence (whole entry, looked up): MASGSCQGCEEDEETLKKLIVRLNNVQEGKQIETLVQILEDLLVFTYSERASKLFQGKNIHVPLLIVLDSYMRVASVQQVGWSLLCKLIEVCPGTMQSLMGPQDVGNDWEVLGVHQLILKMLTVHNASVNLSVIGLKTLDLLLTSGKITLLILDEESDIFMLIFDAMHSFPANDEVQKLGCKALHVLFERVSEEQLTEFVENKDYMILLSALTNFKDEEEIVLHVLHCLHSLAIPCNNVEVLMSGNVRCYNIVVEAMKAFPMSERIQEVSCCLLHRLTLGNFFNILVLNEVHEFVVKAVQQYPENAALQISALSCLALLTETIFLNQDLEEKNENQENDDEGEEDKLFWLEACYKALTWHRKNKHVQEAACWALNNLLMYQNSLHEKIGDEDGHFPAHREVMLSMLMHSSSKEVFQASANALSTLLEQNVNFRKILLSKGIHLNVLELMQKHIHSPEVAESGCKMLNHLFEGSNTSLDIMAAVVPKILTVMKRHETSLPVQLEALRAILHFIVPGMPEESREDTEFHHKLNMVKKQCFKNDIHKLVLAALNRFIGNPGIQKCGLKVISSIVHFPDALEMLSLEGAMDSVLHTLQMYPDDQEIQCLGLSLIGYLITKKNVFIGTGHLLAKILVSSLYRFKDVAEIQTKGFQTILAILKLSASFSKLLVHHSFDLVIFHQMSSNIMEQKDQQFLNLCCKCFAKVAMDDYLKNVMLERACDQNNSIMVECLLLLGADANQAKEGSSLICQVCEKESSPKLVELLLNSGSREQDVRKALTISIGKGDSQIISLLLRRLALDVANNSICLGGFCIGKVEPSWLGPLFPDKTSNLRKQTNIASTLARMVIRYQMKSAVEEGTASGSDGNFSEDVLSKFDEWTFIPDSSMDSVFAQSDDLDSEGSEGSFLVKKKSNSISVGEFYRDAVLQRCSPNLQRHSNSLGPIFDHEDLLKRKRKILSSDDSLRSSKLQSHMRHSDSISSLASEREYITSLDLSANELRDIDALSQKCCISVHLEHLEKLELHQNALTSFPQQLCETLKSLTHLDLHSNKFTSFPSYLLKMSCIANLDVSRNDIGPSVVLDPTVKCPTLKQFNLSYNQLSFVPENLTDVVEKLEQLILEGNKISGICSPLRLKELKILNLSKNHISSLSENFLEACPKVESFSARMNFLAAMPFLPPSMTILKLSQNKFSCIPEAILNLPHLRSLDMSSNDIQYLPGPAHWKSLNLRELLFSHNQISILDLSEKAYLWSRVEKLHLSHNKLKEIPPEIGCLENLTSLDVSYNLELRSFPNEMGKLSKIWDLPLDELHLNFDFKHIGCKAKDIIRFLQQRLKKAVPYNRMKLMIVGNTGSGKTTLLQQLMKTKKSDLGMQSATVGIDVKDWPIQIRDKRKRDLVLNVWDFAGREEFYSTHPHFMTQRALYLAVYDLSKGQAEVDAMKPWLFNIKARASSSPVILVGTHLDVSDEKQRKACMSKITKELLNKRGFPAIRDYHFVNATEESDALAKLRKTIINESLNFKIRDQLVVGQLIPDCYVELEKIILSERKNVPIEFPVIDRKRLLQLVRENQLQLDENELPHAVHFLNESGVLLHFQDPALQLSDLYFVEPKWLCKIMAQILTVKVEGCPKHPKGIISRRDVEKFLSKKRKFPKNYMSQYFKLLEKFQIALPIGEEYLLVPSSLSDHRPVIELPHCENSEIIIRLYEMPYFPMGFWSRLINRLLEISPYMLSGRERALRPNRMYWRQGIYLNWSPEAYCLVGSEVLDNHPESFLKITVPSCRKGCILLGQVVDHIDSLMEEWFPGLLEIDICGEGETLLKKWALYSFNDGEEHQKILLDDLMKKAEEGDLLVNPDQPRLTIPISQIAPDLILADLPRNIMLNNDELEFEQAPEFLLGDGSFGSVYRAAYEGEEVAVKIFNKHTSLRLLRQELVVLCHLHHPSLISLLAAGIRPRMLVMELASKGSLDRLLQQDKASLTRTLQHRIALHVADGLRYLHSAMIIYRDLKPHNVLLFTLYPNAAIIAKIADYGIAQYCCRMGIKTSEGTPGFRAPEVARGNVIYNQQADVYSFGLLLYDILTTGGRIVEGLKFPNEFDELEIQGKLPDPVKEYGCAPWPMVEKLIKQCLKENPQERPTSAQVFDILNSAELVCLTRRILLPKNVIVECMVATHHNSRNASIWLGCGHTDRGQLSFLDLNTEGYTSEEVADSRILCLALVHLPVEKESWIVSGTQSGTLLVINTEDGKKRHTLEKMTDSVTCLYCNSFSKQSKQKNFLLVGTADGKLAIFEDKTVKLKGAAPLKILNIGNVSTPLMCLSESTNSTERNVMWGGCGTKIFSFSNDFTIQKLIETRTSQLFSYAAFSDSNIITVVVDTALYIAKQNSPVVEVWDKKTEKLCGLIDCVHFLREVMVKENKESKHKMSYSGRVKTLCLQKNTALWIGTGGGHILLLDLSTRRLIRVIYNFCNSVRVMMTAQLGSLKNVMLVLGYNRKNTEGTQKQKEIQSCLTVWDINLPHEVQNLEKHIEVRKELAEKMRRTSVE
UniProt P41743, sequence (whole entry, looked up): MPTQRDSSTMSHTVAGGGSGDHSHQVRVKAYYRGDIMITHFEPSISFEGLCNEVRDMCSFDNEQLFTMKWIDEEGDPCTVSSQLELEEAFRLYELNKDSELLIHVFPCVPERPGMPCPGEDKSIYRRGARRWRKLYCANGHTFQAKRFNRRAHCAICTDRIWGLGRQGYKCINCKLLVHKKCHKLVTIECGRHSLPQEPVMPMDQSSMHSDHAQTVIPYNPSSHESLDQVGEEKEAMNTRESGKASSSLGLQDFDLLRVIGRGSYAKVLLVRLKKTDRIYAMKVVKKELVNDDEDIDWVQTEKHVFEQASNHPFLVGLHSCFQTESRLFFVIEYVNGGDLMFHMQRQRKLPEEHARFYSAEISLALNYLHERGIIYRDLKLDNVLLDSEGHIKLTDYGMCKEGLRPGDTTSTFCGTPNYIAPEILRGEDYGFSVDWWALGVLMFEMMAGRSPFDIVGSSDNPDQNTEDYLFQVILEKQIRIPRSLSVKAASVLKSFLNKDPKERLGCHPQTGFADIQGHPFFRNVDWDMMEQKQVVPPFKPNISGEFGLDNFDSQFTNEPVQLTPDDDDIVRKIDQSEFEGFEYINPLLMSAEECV
UniProt P16234, sequence (whole entry, looked up): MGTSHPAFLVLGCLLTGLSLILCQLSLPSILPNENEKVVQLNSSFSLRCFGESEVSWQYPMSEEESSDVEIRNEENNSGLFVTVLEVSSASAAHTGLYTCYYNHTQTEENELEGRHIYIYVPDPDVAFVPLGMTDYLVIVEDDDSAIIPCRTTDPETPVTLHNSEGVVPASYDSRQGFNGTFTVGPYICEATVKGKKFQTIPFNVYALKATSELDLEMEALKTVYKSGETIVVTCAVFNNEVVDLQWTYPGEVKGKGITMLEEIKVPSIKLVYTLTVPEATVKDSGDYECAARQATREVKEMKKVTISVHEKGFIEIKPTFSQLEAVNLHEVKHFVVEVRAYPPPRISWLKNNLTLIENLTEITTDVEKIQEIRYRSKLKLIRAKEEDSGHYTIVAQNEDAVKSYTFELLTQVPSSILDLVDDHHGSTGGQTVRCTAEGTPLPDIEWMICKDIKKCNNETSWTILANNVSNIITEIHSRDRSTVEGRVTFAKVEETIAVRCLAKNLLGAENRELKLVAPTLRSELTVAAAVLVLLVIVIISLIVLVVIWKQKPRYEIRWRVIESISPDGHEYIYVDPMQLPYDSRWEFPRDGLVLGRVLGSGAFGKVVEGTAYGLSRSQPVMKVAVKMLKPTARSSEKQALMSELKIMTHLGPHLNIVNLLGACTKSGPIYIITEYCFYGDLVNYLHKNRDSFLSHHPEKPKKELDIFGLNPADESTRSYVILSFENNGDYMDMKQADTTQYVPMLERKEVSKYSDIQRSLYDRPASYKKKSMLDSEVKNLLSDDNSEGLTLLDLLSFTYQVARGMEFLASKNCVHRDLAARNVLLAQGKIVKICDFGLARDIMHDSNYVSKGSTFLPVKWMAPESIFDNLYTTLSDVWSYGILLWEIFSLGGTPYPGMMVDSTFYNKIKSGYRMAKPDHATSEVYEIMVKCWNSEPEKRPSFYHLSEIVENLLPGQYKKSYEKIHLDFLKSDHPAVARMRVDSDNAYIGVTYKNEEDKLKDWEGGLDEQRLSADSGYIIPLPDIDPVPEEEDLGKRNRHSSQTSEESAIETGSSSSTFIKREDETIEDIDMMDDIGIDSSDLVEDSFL
UniProt P51957, sequence (whole entry, looked up): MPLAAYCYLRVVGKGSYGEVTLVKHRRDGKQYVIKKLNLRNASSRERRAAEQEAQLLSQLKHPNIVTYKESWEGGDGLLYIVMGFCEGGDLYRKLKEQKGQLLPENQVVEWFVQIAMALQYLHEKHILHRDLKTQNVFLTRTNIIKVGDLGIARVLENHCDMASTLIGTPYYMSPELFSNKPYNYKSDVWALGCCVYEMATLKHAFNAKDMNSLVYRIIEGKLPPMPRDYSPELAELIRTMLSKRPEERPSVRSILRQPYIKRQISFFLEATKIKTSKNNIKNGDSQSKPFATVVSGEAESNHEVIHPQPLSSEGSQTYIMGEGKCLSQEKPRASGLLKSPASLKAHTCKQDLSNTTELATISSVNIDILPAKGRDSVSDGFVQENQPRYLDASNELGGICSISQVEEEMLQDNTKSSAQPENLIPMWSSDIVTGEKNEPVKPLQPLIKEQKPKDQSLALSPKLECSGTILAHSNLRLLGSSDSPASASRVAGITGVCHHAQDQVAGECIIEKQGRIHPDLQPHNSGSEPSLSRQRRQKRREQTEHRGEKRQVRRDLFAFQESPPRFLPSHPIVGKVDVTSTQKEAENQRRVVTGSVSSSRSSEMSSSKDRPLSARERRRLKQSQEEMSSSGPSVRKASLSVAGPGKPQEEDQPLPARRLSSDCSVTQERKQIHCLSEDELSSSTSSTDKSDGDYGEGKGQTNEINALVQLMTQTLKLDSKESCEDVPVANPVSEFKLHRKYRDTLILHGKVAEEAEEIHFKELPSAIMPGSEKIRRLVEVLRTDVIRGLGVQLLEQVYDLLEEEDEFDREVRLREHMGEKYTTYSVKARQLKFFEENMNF

Set 1
SMILES: COc1cc2c(Nc3ccc(Br)cc3F)ncnc2cc1OCC1CCN(C)CC1
Effect on: enzyme activity
Mode: inhibitor
Tested at: 0.5 µM
Reference: control
target | remaining activity
MAPK12 (Homo sapiens, UniProt P53778) | 92.6%
WNK2 (Homo sapiens, UniProt Q9Y3S1) | 100%
PRKCI (Homo sapiens, UniProt P41743) | 88.1%
NEK4 (Homo sapiens, UniProt P51957) | 102%
PRKG1 (Homo sapiens, UniProt Q13976) | 96.6%
BTK (Homo sapiens, UniProt Q06187) | 17.6%
LRRK2 (Homo sapiens, UniProt Q5S007) | 113%

Set 2
Compound: CC(C)n1cnc(-c2ccc(F)cc2)c1-c1ncc(C(=O)Nc2ccc(N3CCN(C)CC3)cc2)[nH]1
Technique: phase 2a trial
Species: idiopathic pulmonary fibrosis patients
setting | patients with arrhythmia
30 mg once daily, adverse event grade 4 | 0%
30 mg once daily, adverse event grade 2 | 0%
60 mg once daily, adverse event grade 1 | 0%
30 mg once daily, adverse event grade 5 | 0%
30 mg once daily, adverse event grade 3 | 0%
60 mg once daily, adverse event grade 3 | 0%

Set 3
SMILES: CNCc1ccccc1-c1csc([C@@H](C)Nc2nc(C)nc3cc(OC)c(OC)cc23)c1
Tested at: 1 µM
target | assay | remaining binding [%]
EGFR (Homo sapiens, UniProt P00533, L858R) | cell-free assay, competition with immobilised ligand | 82
MTOR (Homo sapiens, UniProt P42345) | cell-free assay, competition with immobilised ligand | 100
CDC42BPG (Homo sapiens, UniProt Q6DT37) | competition binding | 98
FLT3 (Homo sapiens, UniProt P36888, D835H) | cell-free assay, competition with immobilised ligand | 55
PDGFRA (Homo sapiens, UniProt P16234) | cell-free assay, competition with immobilised ligand | 84
MAP3K6 (Homo sapiens, UniProt O95382) | cell-free assay, competition with immobilised ligand | 99
Tyrosine-protein kinase ABL1, phosphorylated (ABL1, Homo sapiens, UniProt P00519, E255K) | binding, competition with immobilised ligand | 75
CAMK2A (Homo sapiens, UniProt Q9UQM7) | cell-free assay, competition with immobilised ligand | 99
Ribosomal protein S6 kinase alpha-2, C-terminal kinase domain (RPS6KA2, Homo sapiens, UniProt Q15349) | cell-free assay, competition with immobilised ligand | 100
CHEK1 (Homo sapiens, UniProt O14757) | cell-free assay, competition with immobilised ligand | 92
MAP2K7 (Homo sapiens, UniProt O14733) | cell-free assay, competition with immobilised ligand | 79
RET (Homo sapiens, UniProt P07949, M918T) | cell-free assay, competition with immobilised ligand | 70
PKMYT1 (Homo sapiens, UniProt Q99640) | cell-free assay, competition with immobilised ligand | 93

Set 4
Cell line: mouse MPNST tumor cells
Technique: high-content nuclear imaging
Item: cell number
Tested at: 10 µM
Time: 12 h
Notes: mean of 2 replicates
Reference: plate mean
Reading: higher = more cells
SMILES | nuclei count [z-score]
CCCCC1CCC(c2nc(-c3ccncc3)no2)CC1 (stereo not shown) | -0.863
CC(=O)N(CC(O)CO)c1c(I)c(C(=O)NCC(O)CO)c(I)c(C(=O)NCC(O)CO)c1I (stereo not shown) | 0.915
Clc1ccc(C(Cn2ccnc2)OCc2ccsc2Cl)c(Cl)c1 (stereo not shown) | 3.31
C#C[C@]1(O)CC[C@H]2[C@@H]3[C@H](C)CC4=C(CCC(=O)C4)[C@H]3CC[C@@]21C | 4.6
c1cc(-c2sc(-c3ccncc3)c(-c3ccncc3)c2-c2ccncc2)ccn1 | -1.65
